Published values pooled from the literature.
Compare with care: the assays were run in different laboratories. Numbers after ± are the reported error.
YAP1 WW2 domain: Transcriptional coactivator YAP1, WW2 domain (YAP1, Homo sapiens, UniProt P46937)
CFTR del508-508: Cystic fibrosis transmembrane conductance regulator (CFTR, Homo sapiens, UniProt P13569, del508-508)
KCNT1: Potassium channel subfamily T member 1 (KCNT1, Homo sapiens, UniProt Q5JUK3)
YAP1 WW1 domain: Transcriptional coactivator YAP1, WW1 domain (YAP1, Homo sapiens, UniProt P46937)
T1: miR-21 precursor (Homo sapiens); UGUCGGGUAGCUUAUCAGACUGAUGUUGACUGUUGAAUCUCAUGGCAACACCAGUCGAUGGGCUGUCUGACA

| Molecule | target | assay | system | conditions | scale | quantity | value |
| --- | --- | --- | --- | --- | --- | --- | --- |
| FC(F)=Cc1cc(C(F)(F)F)cc(C(F)(F)F)c1 | CD209 antigen (CD209, Homo sapiens, UniProt Q9NNX6) | activator, plate-based HRP |  | 500 µM, overnight, 4 °C or RT | reference: DMSO control | HRP binding | ≥ 50% |
| Cc1cc(=O)oc2cc(NC(=O)[C@@H](N)CC(C)C)ccc12 | ERAP1 (Homo sapiens, UniProt Q9NZ08, V737R) | hydrolysis of compound, substrate |  | varied from 0 µM, 5 min, pH 8.0, 27 °C, mutant V737R, no peptide activator |  | Vmax | 90 ± 1 nmol/min/µg |
| N=C(N)c1ccccc1 | Degenerin mec-4 (mec-4, Caenorhabditis elegans, UniProt P24612, A713T) | ion current, two-electrode voltage clamp | Xenopus oocytes coexpressing MEC-2 | 30 µM, -85 mV | reference: uninjected oocytes, positive inhibition, negative potentiation | current change | 0.61 µA |
| IINFEKE | ERAP1 (Homo sapiens, UniProt Q9NZ08, F803R) | L-AMC hydrolysis, activator | peptide | 100 µM, 5 min, pH 8.0, 27 °C, mutant F803R, together with: L-AMC varied from 0 µM |  | Vmax | 179 ± 1 nmol/min/µg |
| CC(C)C[C@H](NC(=O)[C@@H](NC(=O)[C@@H](N)[C@@H](C)O)C(C)C)C(=O)N1CCC[C@H]1C(=O)N1CCC[C@H]1C(=O)N1CCC[C@H]1C(=O)N1CCC[C@H]1C(=O)N[C@@H](Cc1ccc(O)cc1)C(=O)N[C@@H](CCCNC(=N)N)C(=O)N[C@@H](Cc1c[nH]cn1)C(=O)N[C@@H](CCCNC(=N)N)C(=O)N[C@@H](CC(N)=O)C(=O)O | YAP1 WW2 domain | binding, ITC |  | pH 7.0, 25 °C, WW2 domain |  | ΔH | -32.3 ± 2.26 kJ/mol |
| COc1cccc(OC)c1C(=O)NCCNc1nc2cc(C)cc(C)c2cc1C#N | CFTR del508-508 | CFTR correction, corrector, iodide influx rate | FRT expressing YFP-H148Q/I152L | up to 25 µM, 16-20 h, 37 °C, together with: forskolin 20 µM, genistein 50 µM |  | Vmax | 111 µM/s |
| GSRPQRLLWQTAVRHITEQRFIHGH | Calmodulin-1 (Calm1, Rattus norvegicus, UniProt P0DP29, D130A/D94A) | Ca2+ dissociation, stopped-flow quin-2 fluorescence | peptide | 2 µM, pH 7.4, 22 °C, together with: Ca2+-calmodulin complex |  | koff1 | > 500 s⁻¹ |
| COc1ccccc1C(=O)NCCNc1nc2cc(C)cc(C)c2cc1C#N | CFTR del508-508 | CFTR correction, corrector, iodide influx rate | FRT expressing YFP-H148Q/I152L | up to 25 µM, 16-20 h, 37 °C, together with: forskolin 20 µM, genistein 50 µM |  | Vmax | 114 µM/s |
| Clc1ccc(SSc2ccc(Cl)cc2)cc1 | tubulin | colchicine binding, [3H]colchicine binding |  | 5 µM, 10 min, 37 °C, together with: [3H]colchicine 5.0 µM |  | inhibition | 9.8 ± 2% |
| CCCCCCCCCCCCCCCCOc1ccc(/C=C/C(O)=C/C(=O)/C=C/c2ccc(O)c(OC)c2)cc1OC | Protein kinase C epsilon type, C1B domain (PRKCE, Homo sapiens, UniProt Q02156) |  | buffer | 5×1 µM, 1 h, 25 °C, protein excess |  | emission maximum | 560 nm |
| CC1=C(/C=C/C(C)=C/C=C/C(C)=C/CO)C(C)(C)CCC1 | Retinol-binding protein 3 (RBP3, Bos taurus, UniProt P12661) | surface plasmon resonance |  | pH 7.4, 25 °C |  | koff | 0.08 ± 0.8 s⁻¹ |
| COc1cc2c3c(cc4ccccc4c3c1OC)N(C)CC2 | T1, miR-21 precursor (Homo sapiens) | DSF |  | 3 µM, NaCl 0.25 mM |  | melting temperature shift | -15.7 °C |
| LRHYLNLLTRORY (acetyl-Leu28, acetyl-Leu31) | neuropeptide Y receptor Y2 human | agonist | peptide, hY2-CHO | 100 nM, 30 min, 37 °C | reference: no unlabeled agonist | surface receptor depletion | 67.8 ± 2.9% |
| CCN(CC)c1ccc2c(C)c(CCN3CC4(CCN(c5ncnc6[nH]ncc56)CC4)NC3=O)c(=O)oc2c1 | human WIL-FL light chain dimer | proteolysis, stabilizer, proteinase K digestion |  | 10 µM, 2 h, 37 °C, 1% DMSO, together with: proteinase K 50 nM | reference: vehicle | fold protection | > 0.99 |
| CSCC[C@H](NC(=O)[C@@H]1CCCN1C(=O)[C@@H](NC(=O)[C@H](Cc1ccc(O)cc1)NC(=O)[C@H](C)NC(=O)[C@@H]1CCCN1C(=O)[C@@H]1CCCN1C(=O)[C@@H]1CCCN1C(=O)[C@H](CO)NC(=O)[C@H](Cc1c[nH]cn1)NC(=O)CN)[C@@H](C)O)C(=O)N[C@@H](CO)C(=O)O | YAP1 WW2 domain | binding, ITC |  | pH 7.0, 25 °C, WW2 domain |  | TΔS | 4.81 ± 2.22 kJ/mol |
| CCC(C)C(=O)Nc1nc2c(s1)-c1nc(Nc3cc(Cl)ccc3OC)sc1CCC2 (centres unmarked) | CFTR del508-508 | iodide influx, corrector, YFP halide quenching | FRT cells expressing YFP-H148Q/I152L | 16 to 20 h, 37 °C, genistein 50 µM, together with: forskolin 20 µM |  | Vmax | 447 µM/s |
| O=c1c(-c2ccc(O)cc2)coc2cc(O)cc(O)c12 | CNGA1 (Bos taurus, UniProt Q00194) | cGMP-activated current, inside-out patch clamp | Xenopus oocytes | together with: saturating cGMP |  | time constant of current suppression | 7.3 s |
| CCOc1ccccc1S(=O)(=O)N1CC(c2nc(-c3ccsc3)no2)C1 | KCNT1 | ion current, activator, automated patch clamp | CHO | 30 µM | reference: bepridil 60 µM | efficacy | 100% |
| CC(C)C[C@H](NC(=O)[C@@H](NC(=O)[C@@H](N)[C@@H](C)O)C(C)C)C(=O)N1CCC[C@H]1C(=O)N1CCC[C@H]1C(=O)N1CCC[C@H]1C(=O)N1CCC[C@H]1C(=O)N[C@@H](Cc1ccc(O)cc1)C(=O)N[C@@H](CCCNC(=N)N)C(=O)N[C@@H](C)C(=O)N[C@@H](CCCNC(=N)N)C(=O)N[C@@H](CC(N)=O)C(=O)O | YAP1 WW1 domain | binding, ITC |  | pH 7.0, 25 °C, WW1 domain |  | TΔS | -33.3 ± 2.18 kJ/mol |
| Nc1cc(COc2c(Cl)cc(C[C@H](N)C(=O)O)cc2Cl)c2oc(-c3ccccc3)nc2c1 | SLC7A5 (Homo sapiens, UniProt Q01650) | leucine uptake, inhibitor | HEK293 expressing human LAT1 | 20 µM, 30 min, read 24 h after washout, together with: L-[14C]leucine 1 µM | reference: untreated | remaining activity | ~90% |
| c1cnc2c(c1)ccc1cccnc12 | Stromal processing peptidase, chloroplastic (SPP, Pisum sativum, UniProt Q40983) | transit peptide conversion | chloroplast extract |  |  | full inhibitory concentration | 10 mM |
| CC(C)C[C@H](NC(=O)[C@@H](NC(=O)[C@@H](N)[C@@H](C)O)C(C)C)C(=O)N1CCC[C@H]1C(=O)N1CCC[C@H]1C(=O)N1CCC[C@H]1C(=O)N[C@@H](C)C(=O)N[C@@H](Cc1ccc(O)cc1)C(=O)N[C@@H](CCCNC(=N)N)C(=O)N[C@@H](Cc1c[nH]cn1)C(=O)N[C@@H](CCCNC(=N)N)C(=O)N[C@@H](CC(N)=O)C(=O)O | YAP1 WW1 domain | binding, ITC |  | pH 7.0, 25 °C, WW1 domain |  | ΔH | -52.9 ± 2.05 kJ/mol |
| CASDEGEVIVFGG | Kelch domain-containing protein 2 (UniProt Q9Y2U9) | native mass spectrometry | peptide, 200 mM ammonium acetate | 20 µM Kelch domain-containing protein 2, pH 7 | reference: total Kelch domain-containing protein 2 signal | fraction of protein bound | 2% |
| ARRHSMGWAYKKKK | NEK2 (Homo sapiens, UniProt P51955, T175A) | substrate | peptide | Km of kinase, 1 h, 30 °C | reference: optimal peptide | phosphorylation | ≤ 1% |
| CC[C@H](C)[C@H](NC(=O)[C@@H]1CCCN1C(=O)[C@@H]1CCCN1C(=O)[C@@H]1CCCN1C(=O)[C@@H](NC(=O)[C@H](CC(N)=O)NC(=O)[C@@H](N)Cc1ccccc1)[C@@H](C)CC)C(=O)N[C@@H](Cc1ccc(O)cc1)C(=O)N[C@H](C(=O)N[C@@H](CO)C(=O)N[C@@H](CCCNC(=N)N)C(=O)N[C@@H](C)C(=O)O)[C@@H](C)O | YAP1 WW2 domain | binding, ITC |  | pH 7.0, 25 °C, WW2 domain |  | ΔG | -22.89 ± 0.126 kJ/mol |
| O=S(=O)(c1ccc(C(F)(F)F)cc1)N1CC(c2nc(-c3ccsc3)no2)C1 | KCNT1 | Tl+ flux, inhibitor | HEK293 expressing KCNT1 | 30 µM |  | activity class | inactive |

Excerpt of the above:
| Molecule | target | assay | system | conditions | scale | quantity | value |
| --- | --- | --- | --- | --- | --- | --- | --- |
| COc1cc2c3c(cc4ccccc4c3c1OC)N(C)CC2 | T1, miR-21 precursor (Homo sapiens) | DSF |  | 3 µM, NaCl 0.25 mM |  | melting temperature shift | -15.7 °C |
| LRHYLNLLTRORY (acetyl-Leu28, acetyl-Leu31) | neuropeptide Y receptor Y2 human | agonist | peptide, hY2-CHO | 100 nM, 30 min, 37 °C | reference: no unlabeled agonist | surface receptor depletion | 67.8 ± 2.9% |
